Measured values gathered from unrelated publications.
A part holds a random share of what one study measured.

Sample 1
Target: Myc proto-oncogene protein, bHLH-zipper, MAX partner unstated (MYC, Homo sapiens, UniProt P01106, residues 368-449)
UniProt P01106, sequence (368-449, looked up): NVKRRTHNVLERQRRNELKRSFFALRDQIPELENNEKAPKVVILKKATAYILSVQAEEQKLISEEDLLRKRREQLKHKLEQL
Technique: protein-binding microarray
Molecule type: double-stranded DNA, one strand shown
Medium: in vitro
Tested at: not given
Notes: k-mer, scored over probes, only values ≥0.25
Direction: higher = stronger binding
Strand | E-score
GTGTCGTA | 0.253
CCGCGCGG | 0.358
AAGACATG | 0.262
CAGCACGA | 0.311
GGCCACGA | 0.353
ATGCGGTA | 0.335
AACACGGG | 0.304
AACATGTG | 0.465
CACGTTGG | 0.362
GCGAGGCC | 0.285

Sample 2
Target: PABPC1L2, full length, GST fusion (mouse, UniProt A0ABA7IW68)
Technique: RNAcompete
Molecule type: RNA
Medium: in vitro
Tested at: 20 nM
Notes: 7-mer, probes averaged, single round
Baseline: mean of 7-mers
Direction: higher = stronger binding
Residues (chain): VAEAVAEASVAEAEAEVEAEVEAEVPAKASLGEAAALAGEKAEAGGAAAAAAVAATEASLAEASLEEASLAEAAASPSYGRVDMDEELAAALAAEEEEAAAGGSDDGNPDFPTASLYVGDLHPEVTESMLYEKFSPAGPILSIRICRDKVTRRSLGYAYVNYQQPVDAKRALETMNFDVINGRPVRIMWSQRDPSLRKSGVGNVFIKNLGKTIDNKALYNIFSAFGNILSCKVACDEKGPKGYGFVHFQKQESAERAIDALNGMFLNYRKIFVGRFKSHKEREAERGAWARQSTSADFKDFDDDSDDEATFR
Strand | 7-mer Z-score
CGGUUGU | -0.385
ACCUGGC | -0.26
UCAGUCU | -0.293
UGGACAC | -0.0736
AAACUUG | 1
UUGUCCG | -0.396
GGGUCAG | 0.332
AAUUGAU | 0.166
GACAGGG | 0.146
AAUCGAG | 0.267
UAUAGCG | -0.253

Sample 3
Target: RING finger protein unkempt homolog, zinc fingers 1-6, GST-SBP tag (UNK, Homo sapiens, UniProt Q9C0B0, residues 30-357)
Technique: RNA Bind-n-Seq
Molecule type: RNA
Medium: in vitro
Tested at: not given
Notes: RNA with constant flanks, human and mouse sites, ends assumed
Baseline: input RNA pool
Direction: higher = stronger binding
Constant ends, left off below: GGGAGUUCUACAGUCCGACGAUC … CAACAGAGGAUUGAGCAUCA
Target sequence (chain): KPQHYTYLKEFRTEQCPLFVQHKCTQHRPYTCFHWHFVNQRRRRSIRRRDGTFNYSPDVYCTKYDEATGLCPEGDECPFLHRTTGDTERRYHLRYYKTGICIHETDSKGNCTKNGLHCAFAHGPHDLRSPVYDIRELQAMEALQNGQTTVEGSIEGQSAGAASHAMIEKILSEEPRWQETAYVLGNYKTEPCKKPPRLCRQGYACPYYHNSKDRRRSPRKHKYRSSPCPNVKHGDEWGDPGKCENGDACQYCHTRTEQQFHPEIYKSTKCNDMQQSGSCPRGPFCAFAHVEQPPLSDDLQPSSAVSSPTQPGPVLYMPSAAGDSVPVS
Strand | bound/input enrichment
AGGGAUAAAGUAAUUCCUAAUAAAGUGGGGACAUAUUGUAUCCAGUUUGGUUUUAUGAUGGAUAAAACAAAUAUUCUCAACAGUGAACAGGUUAUAGUUGAAGUCCUGCCUAAUCAACCU | 0.0943 ratio
CGAUCAGGGGAUAGUGAAGUAUACCAAAUGGGUGACGUUAGUCAGAAGACGACGUGGCACAGAAUAUCAGUGUUUCGACCAGGCCUCAGAGAUGUGGCAUAUCAGUAUGUGAAAAAGGGG | 0.193 ratio
CGGUACCCAGACAUCCGCAUUGAAGGAGAGAAUUACCUCCCUCAACCAAUAUAUAGACACAUAGCAUCUUUCCUGUCAGUCUUCAAACUAGUAUUAAUAGGCUUAAUAAUUGUUGGCAAG | 50.5 ratio
CCAGAGGUGAAAGGCUAUUGGGCAAGUUUGGAUGCAUCUACUCAAACCACCCAUGAACUCACCAUUCCAAAUAACUUAAUUGGCUGCAUAAUCGGGCGCCAAGGCGCCAACAUUAAUGAG | 0.121 ratio
AUUCUAACGAUGAUUCCCACCGAUGAGGAGAAGCAGAAAAUCCAGGAAGCUCAGCUGGCCAACCCUGAAAUCCCCCUGGGCAGUGCAGAGCAGUUCCUCCUCACCCUGUCCUCCAUCAGC | 0.142 ratio
AGUCUGGCCGUACCACUGUGGCUGCUGGCAGCGUCCCUGUUCUGCCUUCUCAGCAAAUGUUAAUAGAAUAAAAAUUUAAAAAUAAUUACAAAAACACACAAAAAUGCGUCACACAGAUAC | 13 ratio
GAGAUGUUUCAAACCUUGAUUCAAAAAGUCUGGGUCCCCAUGAAACCCUACUAUACCCAGGUUUACCAGGAAAUUUGGGUAGGAGUGGGGUUAAUGAGCCUCAUCGUAUAUAAAAUCAGG | 0.295 ratio
GCGGCAGCUGUUGCCCUUUCCUCUCUCGUUCAUGCUUUGGAUGAGUUAAACAUGGUCGCCAUCGUCCGAUAUGCUUAUGACAAAAGAUCUAAUCCUCAAGUUGGUGUAGCCUUCCCUUAC | 0.294 ratio
AUAUGCCUAUGGCUACUGGACACAUACCCAUAUAAUCCCCCUAUCUGUUUUGUUAAGCCUACUAGUUCAAUGACUAUUAAAACAGGAAAGCAUGUUGAUGCAAAUGGGAAGAUAUAUCUU | 0.1 ratio
GCUCGGAAUCGGCACUGUCUUGUCAACAUGGAAACAUCGUGCUCUUUUGAUUCUUCCAUCUGUAGUGGAGAAGGGGAUGAUAGUUUAAGGAUAGGUGGACAAGUUCAUGCUGUCCAGGCU | 0.225 ratio
AAUGUUCUCGAUGCCAAUCUCUGCUUGAAAGGAGAAGACUUGGAUUCUCAGGUUGGAGUAAUAGAUUUUUCCCUCUACCUUAAGGAUGUGCAGGAUCUUGAUGGUGGCAAGGAGCAUGAA | 0.421 ratio

Other studies, line by line
Molecule | target | assay | test system | setting | scale | quantity | result
PhoQ, residues 284 288 289 292 302 303 TLMATV | PhoP, residues 12 14 15 18 19 SYFRT (Escherichia coli, UniProt P23836) | Sort-seq, refers to: YFP reporter | E. coli | PhoQ-PhoP variant library, added: 10 µM Mg2+ | baseline: high Mg2+ state, higher = stronger signaling | fold induction | 21.7

Some of these lines once more (sample 3):
Strand | bound/input enrichment
CCAGAGGUGAAAGGCUAUUGGGCAAGUUUGGAUGCAUCUACUCAAACCACCCAUGAACUCACCAUUCCAAAUAACUUAAUUGGCUGCAUAAUCGGGCGCCAAGGCGCCAACAUUAAUGAG | 0.121 ratio
AUUCUAACGAUGAUUCCCACCGAUGAGGAGAAGCAGAAAAUCCAGGAAGCUCAGCUGGCCAACCCUGAAAUCCCCCUGGGCAGUGCAGAGCAGUUCCUCCUCACCCUGUCCUCCAUCAGC | 0.142 ratio
